Results collected from several papers.
Lines come from different studies, so protocols differ.
Organism: Enterococcus faecalis

SMILES	test	system	conditions	MIC
CN(C)c1ncc(O)c2c1C[C@H]1C[C@H]3[C@H](N(C)C)C(O)=C(C(N)=O)C(=O)[C@@]3(O)C(O)=C1C2=O.Cl.Cl	–	tet(M)-carrying	–	32 µg/mL
CC[C@H](C)[C@H](NC(=O)[C@H](CC(C)C)NC(=O)[C@@H](NC(=O)[C@H](CCCNC(=N)N)NC(=O)[C@H](CCCNC(=N)N)NC(=O)[C@H](CCCNC(=N)N)NC(=O)[C@@H](N)CCCNC(=N)N)[C@@H](C)CC)C(=O)N[C@@H](CCCCN)C(=O)N[C@@H](CCCCN)C(=O)N[C@H](C(=O)N[C@@H](CC(C)C)C(=O)N[C@@H](CCCCN)C(=O)N[C@@H](CC(C)C)C(=O)N[C@@H](CCCCN)C(=O)N[C@@H](CO)C(=O)N[C@@H](CO)C(=O)N[C@@H](C)C(=O)N[C@@H](Cc1ccc(O)cc1)C(N)=O)C(C)C	broth microdilution	ATCC 29212	highest value reported	64 µM
CN[C@H](CC(C)C)C(=O)N[C@H]1C(=O)N[C@@H](CC(N)=O)C(=O)N[C@H]2C(=O)NC3C(=O)N[C@H](C(=O)N[C@H](C(=O)NCCC[N+](C)(C)C)c4cc(O)cc(O)c4-c4cc3ccc4O)[C@H](O)c3ccc(c(Cl)c3)Oc3cc2cc(c3OC2OC(CO)C(O)[C@H](O)[C@@H]2O[C@H]2CC(C)(NCc3ccc(-c4ccc(Cl)cc4)cc3)[C@H](O)[C@H](C)O2)Oc2ccc(cc2Cl)[C@H]1O (stereo partly drawn)	–	BM 4166 vanA	added: 100 µg/mL POPE plus LTA	1 µg/mL
CN[C@H](CC(C)C)C(=O)N[C@H]1C(=O)N[C@@H](CC(N)=O)C(=O)N[C@H]2C(=O)N[C@H]3C(=O)N[C@H](C(=O)N[C@H](C(=O)O)c4cc(O)cc(O)c4-c4cc3ccc4O)[C@H](O)c3ccc(c(Cl)c3)Oc3cc2cc(c3O[C@@H]2O[C@H](CO)[C@@H](O)[C@H](O)[C@H]2O[C@H]2C[C@](C)(N)[C@H](O)[C@H](C)O2)Oc2ccc(cc2Cl)[C@H]1O	broth microdilution	vancomycin-resistant, tryptic soy broth	20 to 24 h, 37 °C, 0.002% polysorbate 80	32 µg/mL
CN(C)[C@@H]1C(O)=C(C(N)=O)C(=O)[C@@]2(O)C(O)=C3C(=O)c4c(O)cncc4C[C@H]3C[C@@H]12.Cl.Cl	–	tet(M)-carrying	–	> 32 µg/mL
CC[C@H](C)[C@H](NC(=O)[C@H](CCCCN)NC(=O)[C@H](CCCNC(=N)N)NC(=O)[C@H](CCCNC(=N)N)NC(=O)[C@H](CC(C)C)NC(=O)[C@H](CCCCN)NC(=O)[C@H](CCCCN)NC(=O)[C@H](Cc1ccccc1)NC(=O)[C@H](CC(C)C)NC(=O)CNC(=O)[C@H](CCCNC(=N)N)NC(=O)[C@@H](N)CCCNC(=N)N)C(=O)N[C@@H](CCCCN)C(=O)N[C@@H](CCCCN)C(=O)NCC(=O)N[C@@H](Cc1ccccc1)C(=O)N[C@@H](CCCCN)C(=O)N[C@@H](CCCCN)C(=O)N[C@H](C(=O)N[C@@H](Cc1ccccc1)C(=O)N[C@@H](CCCCN)C(=O)N[C@@H](CCCNC(=N)N)C(=O)N[C@@H](CC(C)C)C(=O)N1CCC[C@H]1C(=O)N1CCC[C@H]1C(=O)N[C@H](C(=O)NCC(=O)N[C@H](C(=O)NCC(=O)N[C@H](C(=O)N[C@@H](CO)C(=O)O)C(C)C)C(C)C)C(C)C)[C@@H](C)CC	–	ATCC 29212	highest concentration 50 µM	2.58 µM
CCCCCCCCCCCCCCNC(=O)CP(=O)(O)O	–	ATCC 33186	–	> 200 µg/mL
CN(C)[C@@H]1C(O)=C(C(N)=O)C(=O)[C@@]2(O)C(O)=C3C(=O)c4c(O)c(NC(=O)CNC(C)(C)C)nc(Cl)c4C[C@H]3C[C@@H]12.Cl.Cl.Cl	–	tet(M)-carrying	–	> 32 µg/mL
CC[C@H](C)[C@H](N)C(=O)N[C@@H](CCCNC(=N)N)C(=O)N[C@H](C(=O)N[C@@H](Cc1c[nH]c2ccccc12)C(=O)N[C@@H](Cc1ccccc1)C(=O)N[C@H](C(=O)N[C@@H](CCCCN)C(=O)N[C@H](C(=O)N[C@@H](CCCNC(=N)N)C(=O)N[C@@H](CCCCN)C(=O)N[C@@H](Cc1c[nH]c2ccccc12)C(=O)N[C@@H](CCCCN)C(=O)N[C@@H](C)C(=O)N[C@H](C(=O)N[C@@H](Cc1ccc(O)cc1)C(=O)N[C@@H](Cc1c[nH]cn1)C(=O)N[C@H](C(N)=O)[C@@H](C)O)[C@@H](C)CC)C(C)C)[C@@H](C)CC)C(C)C	broth dilution	KCTC 3511	–	12.5 µM
CC(C)C[C@@H](NC(=O)[C@H](C)NC(=O)CNC(=O)[C@@H](NC=O)C(C)C)C(=O)N[C@@H](C)C(=O)N[C@@H](C(=O)N[C@H](C(=O)N[C@@H](C(=O)N[C@@H](Cc1c[nH]c2ccccc12)C(=O)N[C@H](CC(C)C)C(=O)N[C@@H](Cc1cccc2[nH]ccc12)C(=O)N[C@H](CC(C)C)C(=O)N[C@@H](Cc1c[nH]c2ccccc12)C(=O)N[C@H](CC(C)C)C(=O)N[C@@H](Cc1c[nH]c2ccccc12)C(=O)NCCO)C(C)C)C(C)C)C(C)C	broth microdilution	JCM 5803	–	0.13 µM
CC(C)C[C@H](NC(=O)[C@@H](NC(=O)[C@H](CCCNC(=N)N)NC(=O)[C@H](CCC(N)=O)NC(=O)[C@H](Cc1ccccc1)NC(=O)[C@H](Cc1ccc(O)cc1)NC(=O)[C@H](CC(N)=O)NC(=O)[C@H](Cc1c[nH]c2ccccc12)NC(=O)[C@@H](NC(=O)[C@H](CCCNC(=N)N)NC(=O)[C@H](CCCCN)NC(=O)[C@@H](N)Cc1ccccc1)C(C)C)C(C)C)C(=O)N[C@H](C(=O)N[C@@H](CCCCN)C(=O)N[C@@H](CCCCN)C(=O)N[C@@H](Cc1ccc(O)cc1)C(=O)N[C@@H](C)C(N)=O)C(C)C	broth dilution	KCTC 3511	–	> 100 µM
CC[C@H](C)[C@H](NC(=O)[C@H](CCCCN)NC(=O)[C@H](CCCCN)NC(=O)[C@H](CCCCN)NC(=O)[C@H](CCCCN)NC(=O)[C@H](CCCCN)NC(=O)[C@@H](N)CCCCN)C(=O)N[C@@H](CO)C(=O)N[C@@H](Cc1ccccc1)C(=O)N[C@@H](CC(C)C)C(=O)NCC(=O)N[C@@H](CO)C(=O)N[C@@H](CCCCN)C(=O)N[C@H](C(=O)N[C@H](C(=O)N[C@H](C(=O)N[C@@H](CC(C)C)C(=O)N[C@@H](CC(C)C)C(=O)N[C@@H](CCCCN)C(=O)N[C@@H](CCCNC(=N)N)C(N)=O)C(C)C)C(C)C)C(C)C	broth microdilution	ATCC 29212	highest value reported	16 µM
Cc1ncc(O)c2c1C[C@H]1C[C@H]3[C@H](N(C)C)C(O)=C(C(N)=O)C(=O)[C@@]3(O)C(O)=C1C2=O.Cl.Cl	–	tet(M)-carrying	–	> 32 µg/mL
Cn1c(=O)ccc2ccc(F)c(CCNC[C@H]3CN(c4ccc5c(n4)NC(=O)CO5)C(=O)O3)c21	–	ATCC 29212	–	0.03 µg/mL
CC[C@H](C)[C@H](NC(=O)[C@H](C)NC(=O)[C@H](CCCCN)NC(=O)[C@H](CCCNC(=N)N)NC(=O)[C@H](CCCCN)NC(=O)[C@H](CCCNC(=N)N)NC(=O)[C@H](CCCCN)NC(=O)[C@@H](N)CCCNC(=N)N)C(=O)N[C@@H](CO)C(=O)NCC(=O)N[C@@H](CO)C(=O)N[C@@H](CC(C)C)C(=O)N[C@H](C(=O)N[C@H](C(=O)N[C@@H](CC(C)C)C(=O)N[C@@H](Cc1ccccc1)C(=O)NCC(=O)N[C@@H](Cc1ccc(O)cc1)C(N)=O)[C@@H](C)O)C(C)C	broth microdilution	ATCC 29212	highest value reported	64 µM
CC(C)C[C@@H](NC(=O)[C@H](C)NC(=O)CNC(=O)[C@@H](NC=O)C(C)C)C(=O)N[C@@H](C)C(=O)N[C@@H](C(=O)N[C@H](C(=O)N[C@@H](C(=O)N[C@@H](Cc1c[nH]c2ccccc12)C(=O)N[C@H](CC(C)C)C(=O)N[C@@H](Cc1ccc2[nH]ccc2c1)C(=O)N[C@H](CC(C)C)C(=O)N[C@@H](Cc1c[nH]c2ccccc12)C(=O)N[C@H](CC(C)C)C(=O)N[C@@H](Cc1c[nH]c2ccccc12)C(=O)NCCO)C(C)C)C(C)C)C(C)C	broth microdilution	JCM 5803	–	0.13 µM
CN(C)[C@@H]1C(O)=C(C(N)=O)C(=O)[C@@]2(O)C(O)=C3C(=O)c4c(O)c(N)nc(F)c4C[C@H]3C[C@@H]12.Cl.Cl	–	tet(M)-carrying	–	16 µg/mL
CCCCCCCCCCCCN(C)C(=O)CP(=O)(O)O	–	ATCC 33186	–	200 µg/mL
CCCNc1nc(Cl)c2c(c1O)C(=O)C1=C(O)[C@]3(O)C(=O)C(C(N)=O)=C(O)[C@@H](N(C)C)[C@@H]3C[C@@H]1C2.Cl.Cl.Cl	–	tet(M)-carrying	–	2 µg/mL
COc1ccc2cc1Oc1cc(ccc1OC)CCC(N[C@@H]1CCCc3ccccc31)CCCC2 (stereo partly drawn)	broth microdilution	ATCC 33186	–	> 100 µg/mL
CN1C(=O)Cc2ccc(F)c(CNCCCC3CN(c4ccc5c(n4)NC(=O)CO5)C(=O)O3)c21 (stereo not drawn)	–	ATCC 29212	–	0.25 µg/mL

Excerpt of the above:
SMILES	test	system	conditions	MIC
CC(C)C[C@@H](NC(=O)[C@H](C)NC(=O)CNC(=O)[C@@H](NC=O)C(C)C)C(=O)N[C@@H](C)C(=O)N[C@@H](C(=O)N[C@H](C(=O)N[C@@H](C(=O)N[C@@H](Cc1c[nH]c2ccccc12)C(=O)N[C@H](CC(C)C)C(=O)N[C@@H](Cc1ccc2[nH]ccc2c1)C(=O)N[C@H](CC(C)C)C(=O)N[C@@H](Cc1c[nH]c2ccccc12)C(=O)N[C@H](CC(C)C)C(=O)N[C@@H](Cc1c[nH]c2ccccc12)C(=O)NCCO)C(C)C)C(C)C)C(C)C	broth microdilution	JCM 5803	–	0.13 µM
CN(C)[C@@H]1C(O)=C(C(N)=O)C(=O)[C@@]2(O)C(O)=C3C(=O)c4c(O)c(N)nc(F)c4C[C@H]3C[C@@H]12.Cl.Cl	–	tet(M)-carrying	–	16 µg/mL
